Measured values collected from several papers.
Each line is one published result; not all experiments were run side by side. Values joined by “and” are separate records of one study, mostly repeats; a detail may differ. ± gives the spread as reported.
HTR1D: 5-hydroxytryptamine receptor 1D (HTR1D, Homo sapiens, UniProt P28221)
Sequence of UniProt P28221 (whole entry, looked up): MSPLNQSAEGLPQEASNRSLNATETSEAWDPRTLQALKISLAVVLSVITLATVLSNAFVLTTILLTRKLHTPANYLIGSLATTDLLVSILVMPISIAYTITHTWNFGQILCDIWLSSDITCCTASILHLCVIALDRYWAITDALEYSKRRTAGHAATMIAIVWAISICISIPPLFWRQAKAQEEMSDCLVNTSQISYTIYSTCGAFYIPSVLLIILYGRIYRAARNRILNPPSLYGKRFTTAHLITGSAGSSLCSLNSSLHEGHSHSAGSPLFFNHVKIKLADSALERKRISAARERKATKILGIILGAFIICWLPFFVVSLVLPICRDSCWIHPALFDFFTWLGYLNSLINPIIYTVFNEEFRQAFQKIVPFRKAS
CACNA1C: Voltage-dependent L-type calcium channel subunit alpha-1C (CACNA1C, Homo sapiens, UniProt Q13936)
Sequence of UniProt Q13936 (whole entry, looked up): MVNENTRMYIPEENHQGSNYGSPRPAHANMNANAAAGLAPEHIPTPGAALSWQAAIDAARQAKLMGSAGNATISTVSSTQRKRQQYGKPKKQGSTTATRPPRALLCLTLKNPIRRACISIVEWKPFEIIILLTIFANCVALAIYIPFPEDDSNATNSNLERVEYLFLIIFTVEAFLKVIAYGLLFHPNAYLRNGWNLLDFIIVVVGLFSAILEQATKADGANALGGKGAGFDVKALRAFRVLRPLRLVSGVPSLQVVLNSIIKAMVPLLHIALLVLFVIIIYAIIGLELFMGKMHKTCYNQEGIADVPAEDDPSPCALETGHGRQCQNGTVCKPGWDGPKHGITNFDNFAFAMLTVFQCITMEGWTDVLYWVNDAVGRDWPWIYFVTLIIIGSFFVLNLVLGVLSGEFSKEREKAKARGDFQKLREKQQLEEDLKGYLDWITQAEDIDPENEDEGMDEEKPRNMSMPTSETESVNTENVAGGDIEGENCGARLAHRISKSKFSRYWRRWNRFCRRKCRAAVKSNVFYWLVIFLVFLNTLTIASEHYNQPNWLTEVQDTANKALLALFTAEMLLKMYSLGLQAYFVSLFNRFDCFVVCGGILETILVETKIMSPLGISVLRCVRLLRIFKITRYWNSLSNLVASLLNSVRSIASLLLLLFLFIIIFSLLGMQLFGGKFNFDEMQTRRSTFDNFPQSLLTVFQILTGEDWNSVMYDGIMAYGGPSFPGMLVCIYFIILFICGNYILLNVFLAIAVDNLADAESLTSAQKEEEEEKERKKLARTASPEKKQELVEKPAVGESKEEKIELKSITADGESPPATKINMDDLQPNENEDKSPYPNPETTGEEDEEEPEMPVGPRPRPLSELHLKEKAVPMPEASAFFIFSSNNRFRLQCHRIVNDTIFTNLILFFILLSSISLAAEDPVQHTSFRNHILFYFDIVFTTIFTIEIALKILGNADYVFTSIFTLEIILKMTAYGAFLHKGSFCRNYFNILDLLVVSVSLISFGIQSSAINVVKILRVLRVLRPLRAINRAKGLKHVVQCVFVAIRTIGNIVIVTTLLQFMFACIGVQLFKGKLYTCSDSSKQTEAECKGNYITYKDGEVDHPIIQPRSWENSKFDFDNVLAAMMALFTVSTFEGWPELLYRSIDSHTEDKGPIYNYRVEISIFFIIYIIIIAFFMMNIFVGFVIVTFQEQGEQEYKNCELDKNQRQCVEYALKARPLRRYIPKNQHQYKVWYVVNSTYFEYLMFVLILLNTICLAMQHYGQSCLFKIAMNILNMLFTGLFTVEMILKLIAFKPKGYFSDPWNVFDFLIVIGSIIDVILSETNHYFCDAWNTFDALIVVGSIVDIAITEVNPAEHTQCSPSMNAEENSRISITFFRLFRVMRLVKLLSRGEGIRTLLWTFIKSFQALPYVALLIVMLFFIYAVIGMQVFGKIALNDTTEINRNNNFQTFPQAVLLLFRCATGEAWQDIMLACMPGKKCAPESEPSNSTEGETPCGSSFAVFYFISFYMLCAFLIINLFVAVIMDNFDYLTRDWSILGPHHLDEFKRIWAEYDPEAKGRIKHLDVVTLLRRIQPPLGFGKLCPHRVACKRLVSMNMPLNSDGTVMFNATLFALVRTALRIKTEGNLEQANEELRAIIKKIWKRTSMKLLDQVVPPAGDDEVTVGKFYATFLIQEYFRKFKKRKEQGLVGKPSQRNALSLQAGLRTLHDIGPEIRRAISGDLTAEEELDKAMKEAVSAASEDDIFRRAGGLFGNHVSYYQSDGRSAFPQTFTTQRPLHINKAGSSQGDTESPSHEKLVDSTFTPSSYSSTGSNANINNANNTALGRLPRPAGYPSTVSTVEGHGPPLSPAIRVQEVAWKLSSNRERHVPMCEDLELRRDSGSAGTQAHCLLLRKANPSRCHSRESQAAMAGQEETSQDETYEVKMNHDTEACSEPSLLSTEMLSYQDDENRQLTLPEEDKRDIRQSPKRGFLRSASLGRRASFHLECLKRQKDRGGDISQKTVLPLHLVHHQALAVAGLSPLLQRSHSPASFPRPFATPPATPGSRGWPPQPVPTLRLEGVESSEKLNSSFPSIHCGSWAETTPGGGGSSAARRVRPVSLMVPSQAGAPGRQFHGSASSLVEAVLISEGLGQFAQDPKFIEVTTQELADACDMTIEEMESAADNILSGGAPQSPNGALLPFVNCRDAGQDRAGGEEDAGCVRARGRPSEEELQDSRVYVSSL
SCN9A: Sodium channel protein type 9 subunit alpha (SCN9A, Homo sapiens, UniProt Q15858)
Sequence of UniProt Q15858 (whole entry, looked up): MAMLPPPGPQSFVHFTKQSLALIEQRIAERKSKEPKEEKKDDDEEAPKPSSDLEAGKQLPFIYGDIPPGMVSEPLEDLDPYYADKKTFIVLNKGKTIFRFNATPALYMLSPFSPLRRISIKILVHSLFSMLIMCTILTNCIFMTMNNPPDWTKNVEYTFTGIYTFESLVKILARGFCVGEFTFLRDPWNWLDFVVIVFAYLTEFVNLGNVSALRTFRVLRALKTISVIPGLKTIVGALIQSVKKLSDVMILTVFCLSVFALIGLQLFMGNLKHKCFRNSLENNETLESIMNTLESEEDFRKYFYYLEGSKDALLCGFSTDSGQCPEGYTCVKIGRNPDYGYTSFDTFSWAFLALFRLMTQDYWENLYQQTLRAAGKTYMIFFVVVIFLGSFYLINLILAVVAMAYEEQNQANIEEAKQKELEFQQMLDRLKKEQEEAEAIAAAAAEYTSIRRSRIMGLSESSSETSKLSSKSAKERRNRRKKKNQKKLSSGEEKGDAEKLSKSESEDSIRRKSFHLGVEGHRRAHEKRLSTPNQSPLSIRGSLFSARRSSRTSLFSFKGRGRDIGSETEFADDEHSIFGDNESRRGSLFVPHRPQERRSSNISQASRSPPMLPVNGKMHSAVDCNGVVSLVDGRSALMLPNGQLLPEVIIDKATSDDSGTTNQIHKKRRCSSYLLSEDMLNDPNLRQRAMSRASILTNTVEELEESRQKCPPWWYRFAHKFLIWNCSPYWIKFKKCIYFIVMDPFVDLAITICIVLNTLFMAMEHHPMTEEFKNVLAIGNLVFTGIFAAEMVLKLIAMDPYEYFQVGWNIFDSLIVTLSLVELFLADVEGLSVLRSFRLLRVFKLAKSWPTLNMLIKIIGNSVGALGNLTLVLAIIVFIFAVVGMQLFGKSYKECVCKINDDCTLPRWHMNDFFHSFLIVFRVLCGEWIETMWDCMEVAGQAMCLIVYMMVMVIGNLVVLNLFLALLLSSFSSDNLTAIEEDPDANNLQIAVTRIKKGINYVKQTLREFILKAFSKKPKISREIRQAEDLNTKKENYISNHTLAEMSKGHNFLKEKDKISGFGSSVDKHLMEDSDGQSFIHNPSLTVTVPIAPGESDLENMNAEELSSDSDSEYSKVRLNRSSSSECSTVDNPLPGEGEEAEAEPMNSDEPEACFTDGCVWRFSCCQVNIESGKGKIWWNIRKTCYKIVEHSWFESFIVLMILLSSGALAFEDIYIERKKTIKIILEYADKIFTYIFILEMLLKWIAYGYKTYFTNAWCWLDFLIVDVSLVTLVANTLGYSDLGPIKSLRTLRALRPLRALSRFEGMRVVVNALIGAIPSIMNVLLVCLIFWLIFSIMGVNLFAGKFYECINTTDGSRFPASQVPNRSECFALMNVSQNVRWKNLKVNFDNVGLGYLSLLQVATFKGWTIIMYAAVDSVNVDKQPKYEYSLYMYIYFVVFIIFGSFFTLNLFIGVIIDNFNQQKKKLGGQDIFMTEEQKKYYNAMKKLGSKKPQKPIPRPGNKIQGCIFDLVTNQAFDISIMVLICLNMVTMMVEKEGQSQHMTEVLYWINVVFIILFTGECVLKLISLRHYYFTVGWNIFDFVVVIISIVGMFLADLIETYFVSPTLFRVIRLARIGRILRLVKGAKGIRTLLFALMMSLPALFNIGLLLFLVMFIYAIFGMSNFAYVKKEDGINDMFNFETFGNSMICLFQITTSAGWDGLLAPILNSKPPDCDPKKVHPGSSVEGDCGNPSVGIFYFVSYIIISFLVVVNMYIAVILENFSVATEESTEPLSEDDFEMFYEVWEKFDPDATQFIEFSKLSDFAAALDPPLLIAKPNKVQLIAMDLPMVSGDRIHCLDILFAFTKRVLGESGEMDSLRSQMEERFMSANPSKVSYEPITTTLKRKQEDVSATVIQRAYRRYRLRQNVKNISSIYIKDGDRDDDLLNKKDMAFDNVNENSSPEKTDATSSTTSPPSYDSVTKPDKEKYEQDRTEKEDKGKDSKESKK
Sequence of UniProt Q8C6L5 (whole entry, looked up): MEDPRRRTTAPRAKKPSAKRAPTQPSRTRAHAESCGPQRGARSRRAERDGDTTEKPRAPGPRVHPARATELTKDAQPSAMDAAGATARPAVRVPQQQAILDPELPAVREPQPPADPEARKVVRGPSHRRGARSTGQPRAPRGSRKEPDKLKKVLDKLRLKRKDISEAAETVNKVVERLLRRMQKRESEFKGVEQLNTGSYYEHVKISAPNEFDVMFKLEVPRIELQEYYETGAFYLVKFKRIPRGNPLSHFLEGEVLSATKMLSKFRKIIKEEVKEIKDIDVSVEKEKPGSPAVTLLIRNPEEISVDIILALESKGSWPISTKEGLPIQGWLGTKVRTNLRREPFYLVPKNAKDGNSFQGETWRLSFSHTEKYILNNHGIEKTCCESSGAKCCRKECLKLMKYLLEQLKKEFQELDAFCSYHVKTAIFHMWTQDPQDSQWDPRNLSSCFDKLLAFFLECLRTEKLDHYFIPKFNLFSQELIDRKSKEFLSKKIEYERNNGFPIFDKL

For c1ccc(-c2nc(N3CCC(c4ccccn4)C3)c3ccccc3n2)nc1 (stereo not shown), the inhibition was under 50% (panel of 300 kinases; TR-FRET binding; 1 µM, across all kinases).
CC1=NN(c2ccccn2)C(=O)C1=NNc1ccc(S(N)(=O)=O)cc1 has an inhibition of 25.065 ± 0.00102% (bovine α-glucosidase; enzyme activity, inhibitor, glucose oxidase; 10 µg/mL, together with: maltose).
The inhibition of O=C(CN1CCO[C@H](COc2cccnc2)C1)N1CCc2ccccc21 is reported as -6.8% (HTR1D; radioligand binding; concentration not given, together with: [3H]5-CT).
For COc1cc(C2=CCCCc3c2ccc(OC)c3OC(C)c2cnc([N+](=O)[O-])n2C)cc(OC)c1OC (stereo not shown), the inhibition was 25 ± 3% (tubulin; colchicine binding; 5 µM, together with: 5.0 µM [3H]colchicine).
For C[N+](C)(C)CC(O)CC(=O)[O-] (stereo not shown), “log2 fold change” read -0.199 (binding, MIDAS equilibrium dialysis LC-MS; A2AR-BRIL thermostabilized; concentration not given; relative to: no-protein control).
CC1=NN(c2ccc(Cl)cc2)C(=O)C1=NNc1ccc(S(N)(=O)=O)cc1 has an inhibition of 39.3% (bovine α-glucosidase; enzyme activity, inhibitor, glucose oxidase; 100 µg/mL, together with: maltose).
With Cc1nn(-c2nc3c(F)cc(F)cc3s2)c(O)c1C(c1ccc(C(F)(F)F)cc1)c1c(C)nn(-c2nc3c(F)cc(F)cc3s2)c1O the inhibition was 98.9% (Cgas (Mus musculus, UniProt Q8C6L5); enzyme activity, inhibitor, pyrophosphatase-coupled; 100 µM, 1.5 h, mouse enzyme).
For CC1=NOC(=O)C1=NNc1ccc(S(N)(=O)=O)cc1, the inhibition was 35.4% (bovine α-glucosidase; enzyme activity, inhibitor, glucose oxidase; 50 µg/mL, together with: maltose).
CC(CCC(=O)O)C(=O)O (stereo not shown) — result for “log2 fold change”: -0.775 (binding, MIDAS equilibrium dialysis LC-MS; A2AR-BRIL thermostabilized; concentration not given; relative to: no-protein control).
Ic1cccc2cnccc12 gave an inhibition of 0% (rolipram binding site (rat); radioligand binding, inhibitor; 10 µM).
CC1=NCCNC(=O)C1=NNc1ccc(S(N)(=O)=O)cc1 has an inhibition of 65.9% (bovine α-glucosidase; enzyme activity, inhibitor, glucose oxidase; 500 µg/mL, together with: maltose).
COc1ccccc1N1CCN(CCCCN2CCc3ccccc3C2=O)CC1 has an inhibition of 88% (HTR1D; radioligand binding; concentration not given, together with: [3H]5-CT).
For C[C@H]1[C@H](OC(=O)CCC(=O)O)O[C@@H]2O[C@@]3(C)CC[C@H]4[C@H](C)CC[C@@H]1[C@@]24OO3, the inhibition was 21.4% (Non-structural polyprotein pORF1, helicase domain (Hepatitis E virus genotype 1, UniProt P33424); ATPase activity, inhibitor, colorimetric; 39 µM, together with: ATP 100 µM).
CN1CCN(c2cc(-c3ccncc3)c(-c3ccc4ccccc4c3)nn2)CC1 has an inhibition of -4.3% (PTGIR (Homo sapiens, UniProt P43119); antagonist, FLIPR; 10 µM).
Cc1nn(-c2nc3c(F)cc(F)cc3s2)c(O)c1C(c1cccc(C(F)(F)F)c1)c1c(C)nn(-c2nc3c(F)cc(F)cc3s2)c1O has an inhibition of 79.7% (CGAS (Homo sapiens, UniProt Q8N884); enzyme activity, inhibitor, pyrophosphatase-coupled; 100 µM, 1.5 h, together with: HT-DNA).
CC[C@@H]1[C@H](F)C(=O)N[C@@H]1COc1nccc2cc(C(N)=O)c(OC)cc12 gave an inhibition of -3.6% (CSNK1A1 (Homo sapiens, UniProt P48729); ATP probe binding, KiNativ profiling, item: Lys2 probe site; THP-1 cell lysate; 0.2 mM).
O=C(NO)c1ccc(CN2CCCCc3ccccc32)c(F)c1 gave an inhibition of -22.1% (HTR1D; radioligand binding, radioligand displacement; 10 µM, mean of replicates).
Cc1nc(Nc2ncc(C(=O)Nc3c(C)cccc3Cl)s2)cc(N2CCN(CCO)CC2)n1 gave an inhibition of 38.3% (ERBB2 (Homo sapiens, UniProt P04626); kinase activity, inhibitor, Kinase-Glo MAX; 0.01 µM).
CN(C(=O)n1cnc(-c2ccc[n+]([O-])c2)c1)C1CCCCC1 gave an inhibition of 2.05% (Nociceptin receptor (OPRL1, Homo sapiens, UniProt P41146); binding; 10 µM).
For COc1cc(C(=O)NS(=O)(=O)c2ccccc2C)ccc1Cc1cn(C)c2ccc(NC(=O)OC3CCCC3)cc12, the inhibition was 77.4% and 53.1% and 70.1% and 62.9% and 73.1% (Volume-regulated anion channel subunit LRRC8C, part LRRC8A IL1 chimera (LRRC8C, Homo sapiens, UniProt Q8TDW0, L136K); ion current, inhibitor, whole-cell patch clamp; HCT LRRC8-/- cells; 0.3 µM, +100 mV).
CC1=NN(c2ccc(C)cc2)C(=O)C1=NNc1ccc(S(N)(=O)=O)cc1 has an inhibition of 27.39 ± 0.000879% (bovine α-glucosidase; enzyme activity, inhibitor, glucose oxidase; 10 µg/mL, together with: maltose).
CNc1cccc2cc(C(=O)Nc3ccc(C(=O)O)cc3)c(=O)[nH]c12 has an inhibition of 5.3% (IKK; kinase activity, inhibitor; 10 µM).
The inhibition of Cc1cc2c(cc1N1C(=O)c3cccc4c(CCCO)ccc(c34)C1=O)n(C)c(=O)n2C (racemic) is reported as 71% (KAT2B (Homo sapiens, UniProt Q92831); binding, BROMOscan binding; 1000 nM).
NC/C(=C\F)COc1cccc(Cn2c(=S)[nH]c(=O)c3[nH]cnc32)c1 has an inhibition of 17.4% and 16.8% and 8.2% (CACNA1C; peak ramp current, inhibitor, patch clamp; human cells; 30 µM, pulse 10).
The inhibition of CC(C)c1noc2ncc(C(=O)c3ccccc3O)cc12 is reported as 11.3% (SCN9A; ion current, whole-cell patch-clamp; 10 µM, hNaV1.7).
With O=C(Nc1cccc2c(=O)cc(-c3nnn[nH]3)oc12)c1ccc(OCCCCc2ccccc2)cc1 the inhibition was 35.2% and 56% and 70.7% and 51% (Volume-regulated anion channel subunit LRRC8C, part LRRC8A IL1 chimera (LRRC8C, Homo sapiens, UniProt Q8TDW0); ion current, inhibitor, whole-cell patch clamp; HCT LRRC8-/- cells, transfected; 10 µM, low ionic strength swelling, -100 mV).
COc1cc2c3c(c1OC)-c1cc4c(cc1CC3N(C)CC2c1ccccc1)OCO4 (stereo not shown) gave an inhibition of under 50% (sigma-1; binding, radioligand binding; concentration not given).
CC1=NN(c2ccccc2)C(=O)C1=NNc1ccc(S(N)(=O)=O)cc1 has an inhibition of 50.1% (bovine α-glucosidase; enzyme activity, inhibitor, glucose oxidase; 500 µg/mL, together with: maltose).
With Cc1c(-c2ccccc2)oc2ccccc2c1=O the inhibition was 35.2 ± 3.6% (LRRC8A (Homo sapiens, UniProt Q8IWT6); endogenous hypotonicity-induced current; HEK293; 30 µM).
For c1cncc(OC[C@@H]2CN(CCN3CCc4ccccc43)CCO2)c1, the inhibition was 22.4% (HTR1D; radioligand binding; concentration not given, together with: [3H]5-CT).
For Cc1ccc(C(=O)Nc2ccc3ccccc3c2)o1, the inhibition was 4.18% (SCN9A; ion current, whole-cell patch-clamp; 10 µM, hNaV1.7).
For NC(=O)c1nnn(Cc2cc(Cl)c(C(=O)c3ccc(Cl)cc3)c(Cl)c2)c1N, inhibition read “inhibited” (CACNA1C; calcium channel current, blocker; concentration not given).
With COc1cc2c(cc1OC)C(=O)C(CC1CCN(Cc3ccccc3)CC1)C2 (stereo not shown) the inhibition was 27.3% (HTR1D; radioligand binding; concentration not given, together with: [3H]5-CT).
The inhibition of CC1=NN(c2cc(Cl)ccc2Cl)C(=O)C1=NNc1ccc(S(N)(=O)=O)cc1 is reported as 30.7% (bovine α-glucosidase; enzyme activity, inhibitor, glucose oxidase; 50 µg/mL, together with: maltose).
C#Cc1cc(-c2cc(Nc3nc(N[C@@H](C)c4ccc(F)cn4)ncc3Cl)n[nH]2)ccc1C=O has an inhibition of 19.8% (PNCK (Homo sapiens, UniProt Q6P2M8); enzyme activity, inhibitor; 0.2 µM).
For CC1=NNC(=O)C1=NNc1ccc(S(N)(=O)=O)cc1, the inhibition was 24.548 ± 0.00117% (bovine α-glucosidase; enzyme activity, inhibitor, glucose oxidase; 10 µg/mL, together with: maltose).
COc1ccc2c(c1)C(=O)N(CCN1CCN(c3ccccc3OC)CC1)C2 has an inhibition of 93.8% (HTR1D; radioligand binding; concentration not given, together with: [3H]5-CT).

A few entries again:
For Cc1ccc(C(=O)Nc2ccc3ccccc3c2)o1, the inhibition was 4.18% (SCN9A; ion current, whole-cell patch-clamp; 10 µM, hNaV1.7).
For NC(=O)c1nnn(Cc2cc(Cl)c(C(=O)c3ccc(Cl)cc3)c(Cl)c2)c1N, inhibition read “inhibited” (CACNA1C; calcium channel current, blocker; concentration not given).
